Measurements collected from several papers.
Compare with care: the assays were run in different laboratories. ± marks the error that the study gave.
VPS26A/VPS35/VPS29: VPS26A/VPS35/VPS29 (Homo sapiens, UniProt O75436+Q96QK1+Q9UBQ0)
UDP-3-O-acyl-N-acetylglucosamine deacetylase C40S: UDP-3-O-acyl-N-acetylglucosamine deacetylase (Pseudomonas aeruginosa, UniProt P47205, C40S)
SRC SH2 domain: Proto-oncogene tyrosine-protein kinase Src, SH2 domain (SRC, Homo sapiens, UniProt P12931)

`CC[C@@H](C)[C@@H](NC(=O)[C@@H](Cc1ccc(O)cc1)NC(=O)[C@H]1CCCN1C(=O)[C@@H](CCCNC(=N)N)NC(=O)[C@H](N)Cc1c[nH]cn1)C(=O)N[C@H](C)C(=O)N[C@H](Cc1c[nH]cn1)C(=O)N[C@H](CCCNC(=N)N)C(=O)N[C@@H](C(=O)N[C@H](Cc1ccc(O)cc1)C(=O)N[C@H](CO)C(=O)N[C@H](Cc1ccccc1)C(N)=O)C(C)C` has a Kd of 5.7 ± 0.4 µM (Programmed cell death 1 ligand 1 (CD274, Homo sapiens, UniProt Q9NZQ7); microscale thermophoresis; 2 h, His-tagged protein).
With `CC(=O)N[C@H](C(=O)N1C[C@H](O)C[C@H]1C(=O)NCc1ccc(-c2scnc2C)cc1)C(C)(C)SCCCCCCNC(=O)C[C@@H]1N=C(c2ccc(Cl)cc2)c2c(sc(C)c2C)-n2c(C)nnc21` the Kd was 0.052 ± 0.018 µM (BRD2/VHL, BD1; with VCB (Homo sapiens, UniProt P25440+P40337, K107A/Q101K/V106E); ternary binding, ITC; 25 °C, VCB titrated into complex, added: BRD2 BD1 KEA mutant).
`Oc1ccc(Br)cc1OC(F)(F)F` has a Kd of 40 ± 4 µM (Iodotyrosine deiodinase (Haliscomenobacter hydrossis, UniProt F4KU78, Q108C); binding).
The Kd of `CC[C@H](C)[C@@H]1NC(=O)[C@H]([C@@H](C)CC)NC(=O)[C@@H](Cc2ccc(O)cc2)NC(=O)CSC[C@@H](C(N)=O)NC(=O)[C@H](CCCNC(=N)N)NC(=O)[C@H](CCCCN)NC(=O)[C@H](CC(C)C)NC(=O)[C@H](CO)NC(=O)[C@H](CO)NC(=O)[C@H](CC(C)C)NC(=O)[C@H](Cc2ccccc2)NC(=O)[C@H](C(C)C)NC(=O)CNC(=O)[C@H](CC(C)C)NC(=O)[C@@H]2CCCN2C(=O)[C@H]([C@@H](C)O)NC(=O)[C@H](CC(=O)O)NC1=O` is reported as 0.13 ± 0.009 µM (VPS26A/VPS35/VPS29; binding).
For `NC[C@H](NC(=O)c1ccc(C#CC#Cc2ccccc2)cc1)C(=O)NO`, the Kd was 0.0586 µM (UDP-3-O-acyl-N-acetylglucosamine deacetylase C40S; binding).
Under Kd, `Nc1nc2c(ncn2[C@@H]2O[C@@H]3COP(=O)(O)O[C@H]4[C@@H](O)[C@H](n5cnc6c(=O)[nH]c(N)nc65)O[C@@H]4COP(=O)(O)O[C@H]3[C@H]2O)c(=O)[nH]1` is recorded as “no binding” (Cell cycle histidine kinase CckA, cytoplasmic region (Caulobacter vibrioides, UniProt Q9X688); isothermal titration calorimetry; Caulobacter crescentus; 12 °C, added: AMPPNP 5 mM).
For `c1cncc([C@@H]2CCCN2)c1`, the Kd was 0.33 µM (Chrnd/Chrna1/Chrne (Mus musculus, UniProt P02716+P04756+P20782, G173K/S470W); resting state binding, agonist, single-channel kinetics).
The Kd of `CC[C@H](C)[C@H](NC(=O)[C@H](CC(=O)O)NC(=O)[C@H](C)NC(=O)[C@H](Cc1ccc(O)cc1)NC(=O)[C@H](CCCCN)NC(=O)c1ccc2c(c1)C(=O)OC21c2ccc(N(C)C)cc2Oc2cc(N(C)C)ccc21)C(=O)N[C@@H](CCC(=O)O)C(=O)N[C@@H](CO)C(=O)N[C@@H](CO)C(=O)N[C@@H](CC(N)=O)C(=O)N[C@@H](Cc1ccc(OP(=O)(O)O)cc1)C(=O)N[C@@H](CCSC)C(=O)N[C@@H](C)C(=O)N1CCC[C@H]1C(=O)N[C@@H](Cc1ccc(O)cc1)C(=O)N[C@@H](CC(=O)O)C(=O)N[C@@H](CC(N)=O)C(=O)N[C@@H](Cc1ccc(O)cc1)C(=O)N[C@@H](CC(=O)O)C(=O)O` is reported as 0.733 µM (SH2 domain-containing adapter protein F, SH2 domain (SHF, Homo sapiens, UniProt Q7M4L6); binding).
For `O=C(O)c1ccc(O)c(O)c1`, Kd read “no binding” (Dihydroorotate dehydrogenase A (fumarate) (pyrDA, Lactococcus lactis subsp. cremoris, UniProt A2RJT9, L71F); binding, aerobic titration; Lactococcus lactis; 25 °C).
`CCC1COC(Cn2cncn2)(c2ccc(Cl)cc2Cl)O1` (stereo not drawn) has a Kd of 19.2 µM (Cytochrome P450 2A6 (CYP2A6, Homo sapiens, UniProt P11509); binding; 20 min, pH 7.4, purified protein, 2% DMSO).
`CC1(CNC(=O)[C@H](CN)NC(=O)c2ccc(-c3ccccc3)cc2)NC(=O)NC1=O` (stereo partly drawn) has a Kd of > 100 µM (UDP-3-O-acyl-N-acetylglucosamine deacetylase C40S; binding).
`CO[C@H]1/C=C\C=C(/C)C(=O)NC2=CC(=O)C(NCCCCCCNC(=S)Nc3ccc(-c4c5ccc(=O)cc-5oc5cc(O)ccc45)c(C(=O)O)c3)=C(C[C@@H](C)C[C@H](OC)[C@H](O)[C@@H](C)/C=C(\C)[C@@H]1OC(N)=O)C2=O` has a Kd of 0.0023 µM (Heat shock protein 90 homolog (Candida albicans, UniProt P46598); binding, fluorescence polarization; added: geldanamycin-FITC probe).
`CSCC[C@H](NC(=O)CNC(=O)[C@H](Cc1ccccc1)NC(=O)[C@H](CC(=O)O)NC(=O)CNC(=O)c1ccc2c(c1)C(=O)OC21c2ccc(N(C)C)cc2Oc2cc(N(C)C)ccc21)C(=O)N[C@@H](CO)C(=O)N[C@@H](CCCNC(=N)N)C(=O)N[C@@H](CC(=O)O)C(=O)N[C@H](C(=O)N[C@@H](Cc1ccc(OP(=O)(O)O)cc1)C(=O)N[C@@H](CO)C(=O)N[C@H](C(=O)N[C@@H](CC(=O)O)C(=O)N[C@@H](Cc1ccc(O)cc1)C(=O)N[C@@H](Cc1ccc(O)cc1)C(=O)N[C@@H](CCCNC(=N)N)C(=O)N[C@H](C(=O)N[C@@H](CC(=O)O)C(=O)O)C(C)C)[C@@H](C)O)C(C)C` gave a Kd of 0.459 µM (SRC SH2 domain; binding).
The Kd of `O=[N+]([O-])c1ccc2c(N=Nc3ccc4ccccc4c3O)c(O)cc(S(=O)(=O)O)c2c1` is reported as 0.023 ± 0.013 µM (Diphosphomevalonate decarboxylase (Staphylococcus epidermidis, UniProt Q9FD73, W19F)).
The Kd of `CC(=O)N[C@@H](CC(N)=O)C(=O)N[C@@H](CC(C)C)C(=O)NCC(=O)N[C@@H](CCCCN)C(=O)N[C@@H](Cc1c[nH]cn1)C(=O)N[C@@H](CCC(=O)O)C(=O)N[C@@H](CCCCN)C(=O)N[C@@H](Cc1ccccc1)C(=O)N[C@@H](CO)C(=O)N[C@@H](CCC(=O)O)C(=O)N[C@H](C(=O)N[C@@H](CC(C)C)C(=O)N[C@@H](CCCCN)C(=O)N[C@@H](CCCNC(=N)N)C(=O)N[C@@H](CC(C)C)C(=O)N[C@@H](CCCNC(=N)N)C(=O)N[C@@H](CC(C)C)C(=O)N[C@@H](CCC(N)=O)C(N)=O)C(C)C` is reported as 0.13 µM (Calmodulin-1, C-lobe (CALM1, Homo sapiens, UniProt P0DP23); ITC; C-lobe, added: 1 mM CaCl2).
For `CC(C)C[C@@H]1NC(=O)CNC(=O)[C@H](CC(C)C)NC(=O)[C@@H]2CCCN2C(=O)[C@H](CC(=O)O)NC(=O)[C@H](Cc2ccc(O)cc2)NC(=O)CNC(=O)[C@@H](Cc2ccc(O)cc2)NC(=O)CSC[C@@H](C(N)=O)NC(=O)[C@H](C)NC(=O)[C@H](Cc2ccccc2)NC(=O)[C@H](Cc2ccc(O)cc2)NC(=O)[C@H](CCCCN)NC1=O`, the Kd was 0.025 ± 0.001 µM (VPS26A/VPS35/VPS29; binding).
With `c1cc2c3c(cccc3c1)NC1(CCC3(CC1)Nc1cccc4cccc(c14)N3)N2` the Kd was ~10 µM (Histidine protein kinase SaeS (saeS, Staphylococcus aureus, UniProt Q840P7); binding).
`CC[C@H](CO)Nc1nc(NCc2ccc(-c3ccccn3)cc2)c2ncn(C(C)C)c2n1` gave a Kd of 27.1 µM (Ribosomal protein S6 kinase alpha-3 (RPS6KA3, Homo sapiens, UniProt P51812); binding, competition affinity chromatography; SH-SY5Y cell extract).
The Kd of `N[C@@H](Cc1ccc(O)c(I)c1)C(=O)O` is reported as 551 ± 21 µM (Iodotyrosine deiodinase (Haliscomenobacter hydrossis, UniProt F4KU78, R38Q); binding).
With `CSCC[C@H](NC(=O)[C@H](CC(C)C)NC(=O)[C@H](C)NC(=O)[C@H](CCCNC(=N)N)NC(=O)[C@H](Cc1ccc(OP(=O)(O)O)cc1)NC(=O)[C@H](Cc1ccccc1)NC(=O)[C@H](CC(N)=O)NC(=O)[C@H](CO)NC(=O)[C@H](CC(=O)O)NC(=O)[C@@H](NC(=O)[C@@H]1CCCN1C(=O)[C@H](CO)NC(=O)[C@@H]1CCCN1C(=O)[C@H](CC(C)C)NC(=O)c1ccc2c(c1)C(=O)OC21c2ccc(N(C)C)cc2Oc2cc(N(C)C)ccc21)[C@@H](C)O)C(=O)N[C@@H](CC(=O)O)C(=O)N[C@@H](CCC(=O)O)C(=O)N[C@@H](CCC(=O)O)C(=O)N[C@@H](CC(=O)O)C(=O)O` the Kd was 1.14 µM (SRC SH2 domain; binding).
With `O=C(O)CCCN1CC=C(c2ccccc2)CC1` the Kd was > 1000 µM (Ubiquitin carboxyl-terminal hydrolase 3, ZnF-UBD domain (USP3, Homo sapiens, UniProt Q9Y6I4)).
For `CC[C@H](C)[C@@H]1NC(=O)CNC(=O)CNC(=O)[C@H](C)NC(=O)[C@@H](N)CSSC[C@@H](C(N)=O)NC(=O)[C@H](CCCCN)NC(=O)[C@H](CC(C)C)NC(=O)[C@H](C)NC(=O)[C@H](CC(C)C)NC(=O)[C@H](CO)NC(=O)[C@H](Cc2c[nH]cn2)NC(=O)[C@H](Cc2ccccc2)NC1=O`, the Kd was 0.3 to 2 µM (Carbapenem-hydrolyzing beta-lactamase KPC (KPC-2, Klebsiella pneumoniae, UniProt Q9F663); binding).
For `CC(C)C[C@H](NC(=O)[C@@H](NC(=O)[C@H](CO)NC(=O)[C@H](CO)NC(=O)[C@@H](NC(=O)[C@H](CC(=O)O)NC(=O)[C@H](CC(C)C)NC(=O)[C@@H]1CCCN1C(=O)[C@H](CO)NC(=O)c1ccc2c(c1)C(=O)OC21c2ccc(N(C)C)cc2Oc2cc(N(C)C)ccc21)[C@@H](C)O)C(C)C)C(=O)N[C@@H](Cc1ccc(OP(=O)(O)O)cc1)C(=O)N[C@H](C(=O)N[C@@H](C)C(=O)N[C@H](C(=O)N[C@@H](CCC(N)=O)C(=O)N1CCC[C@H]1C(=O)N[C@@H](CC(N)=O)C(=O)N[C@@H](CCC(=O)O)C(=O)N[C@@H](CC(=O)O)C(=O)O)C(C)C)[C@@H](C)O`, the Kd was 1.88 µM (SRC SH2 domain; binding).
With `CCCCCCCC(=O)OC[C@H](COP(=O)(O)O[C@@H]1[C@H](O)[C@H](OP(=O)(O)O)[C@@H](O)[C@H](O)[C@H]1O)OC(=O)CCCCCCC` the Kd was 0.75 ± 0.193 µM (PP2C family protein phosphatase (Vibrio splendidus, UniProt A0ABV4LX41, N139A)).
The Kd of `CC1(CNC(=O)c2ccc(-c3ccc(Br)cc3)cc2)NC(=O)NC1=O` (stereo not drawn) is reported as > 100 µM (UDP-3-O-acyl-N-acetylglucosamine deacetylase C40S; binding).
The Kd of `C[N+](C)(C)C` is reported as 810 µM (Chrnd/Chrna1/Chrne (Mus musculus, UniProt P02716+P04756+P20782); single-channel kinetics; wild-type receptor).
`CC[C@H](C)[C@H](NC(=O)[C@@H](NC(=O)[C@@H](NC(=O)[C@H](Cc1ccccc1)NC(=O)[C@H](C)NC(=O)[C@H](CCCNC(=N)N)NC(=O)CNC(=O)[C@@H]1CCCN1C(=O)CN)C(C)C)[C@@H](C)O)C(=O)O` gave a Kd of ~11000 µM (H-2 class I histocompatibility antigen, D-D alpha chain, 21 (H2-D1, Mus musculus, UniProt P01900)).

Excerpt of the above:
With `O=C(O)CCCN1CC=C(c2ccccc2)CC1` the Kd was > 1000 µM (Ubiquitin carboxyl-terminal hydrolase 3, ZnF-UBD domain (USP3, Homo sapiens, UniProt Q9Y6I4)).
For `CC[C@H](C)[C@@H]1NC(=O)CNC(=O)CNC(=O)[C@H](C)NC(=O)[C@@H](N)CSSC[C@@H](C(N)=O)NC(=O)[C@H](CCCCN)NC(=O)[C@H](CC(C)C)NC(=O)[C@H](C)NC(=O)[C@H](CC(C)C)NC(=O)[C@H](CO)NC(=O)[C@H](Cc2c[nH]cn2)NC(=O)[C@H](Cc2ccccc2)NC1=O`, the Kd was 0.3 to 2 µM (Carbapenem-hydrolyzing beta-lactamase KPC (KPC-2, Klebsiella pneumoniae, UniProt Q9F663); binding).
For `CC(C)C[C@H](NC(=O)[C@@H](NC(=O)[C@H](CO)NC(=O)[C@H](CO)NC(=O)[C@@H](NC(=O)[C@H](CC(=O)O)NC(=O)[C@H](CC(C)C)NC(=O)[C@@H]1CCCN1C(=O)[C@H](CO)NC(=O)c1ccc2c(c1)C(=O)OC21c2ccc(N(C)C)cc2Oc2cc(N(C)C)ccc21)[C@@H](C)O)C(C)C)C(=O)N[C@@H](Cc1ccc(OP(=O)(O)O)cc1)C(=O)N[C@H](C(=O)N[C@@H](C)C(=O)N[C@H](C(=O)N[C@@H](CCC(N)=O)C(=O)N1CCC[C@H]1C(=O)N[C@@H](CC(N)=O)C(=O)N[C@@H](CCC(=O)O)C(=O)N[C@@H](CC(=O)O)C(=O)O)C(C)C)[C@@H](C)O`, the Kd was 1.88 µM (SRC SH2 domain; binding).
With `CCCCCCCC(=O)OC[C@H](COP(=O)(O)O[C@@H]1[C@H](O)[C@H](OP(=O)(O)O)[C@@H](O)[C@H](O)[C@H]1O)OC(=O)CCCCCCC` the Kd was 0.75 ± 0.193 µM (PP2C family protein phosphatase (Vibrio splendidus, UniProt A0ABV4LX41, N139A)).
The Kd of `CC1(CNC(=O)c2ccc(-c3ccc(Br)cc3)cc2)NC(=O)NC1=O` (stereo not drawn) is reported as > 100 µM (UDP-3-O-acyl-N-acetylglucosamine deacetylase C40S; binding).
